Experimental data from different studies.
Protocols differ between the studies behind these lines. Several values in a cell are separate wells, animals, samples, runs or records. ± gives the spread as reported.
UniProt O75460, sequence (whole entry, looked up): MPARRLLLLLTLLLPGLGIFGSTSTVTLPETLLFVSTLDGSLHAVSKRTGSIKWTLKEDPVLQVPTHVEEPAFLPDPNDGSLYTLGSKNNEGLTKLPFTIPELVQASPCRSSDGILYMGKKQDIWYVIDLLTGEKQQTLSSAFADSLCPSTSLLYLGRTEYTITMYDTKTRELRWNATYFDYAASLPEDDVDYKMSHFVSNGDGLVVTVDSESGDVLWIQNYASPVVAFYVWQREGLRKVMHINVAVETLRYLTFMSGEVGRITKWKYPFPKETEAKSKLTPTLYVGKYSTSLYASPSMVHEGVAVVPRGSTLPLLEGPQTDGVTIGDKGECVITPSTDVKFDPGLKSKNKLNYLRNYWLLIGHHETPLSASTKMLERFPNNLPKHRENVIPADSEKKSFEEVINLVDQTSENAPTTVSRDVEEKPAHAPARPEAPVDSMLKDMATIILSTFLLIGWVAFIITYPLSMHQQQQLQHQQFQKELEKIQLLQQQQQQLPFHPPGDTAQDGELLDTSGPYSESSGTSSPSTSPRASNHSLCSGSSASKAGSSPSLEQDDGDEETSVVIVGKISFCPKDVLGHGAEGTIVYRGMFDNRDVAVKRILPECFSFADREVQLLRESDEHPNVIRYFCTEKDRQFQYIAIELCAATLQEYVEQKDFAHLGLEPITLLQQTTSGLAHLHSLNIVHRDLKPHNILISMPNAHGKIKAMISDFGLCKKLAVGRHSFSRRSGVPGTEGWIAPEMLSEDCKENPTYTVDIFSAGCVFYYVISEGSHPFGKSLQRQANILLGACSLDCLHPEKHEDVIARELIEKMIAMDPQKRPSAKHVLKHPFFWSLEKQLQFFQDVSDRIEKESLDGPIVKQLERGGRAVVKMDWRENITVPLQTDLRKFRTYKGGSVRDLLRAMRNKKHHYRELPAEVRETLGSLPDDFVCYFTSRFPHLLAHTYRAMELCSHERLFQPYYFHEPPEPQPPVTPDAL

SMILES	target or system	assay	system	setting	how to read	quantity	value
CCC(CO)NCCNC(CC)CO.COC(=O)C=C1SC(=NN=Cc2ccc(OC(=O)CN3C(=O)CSC3=O)cc2)NC1=O	Mycobacterium tuberculosis	two-drug checkerboard	H37Rv	concentration not given, unit not given	lower means more synergy	FICI	2
CCn1c(C)c(CC(=O)N[C@@H](Cc2ccccc2)C(=O)N(C)c2cccc(Cl)c2)c2ccccc21	HIV-1	viral infection				EC50	470 ± 10 nM
NNC(=O)c1ccncc1.O=C(CN1C(=O)CSC1=O)Oc1ccc(C=NNC(=S)Nc2cccc(Cl)c2)cc1Cl	Mycobacterium tuberculosis	growth in combination	192	together with: reference drug at 1/2 MIC		MIC	0.0312 µg/mL
Cc1occc1C(=O)Nc1nc(-c2ccccn2)nc2ccsc12	Mycobacterium tuberculosis	bacterial growth, inhibitor	mmpL3-TetON			IC50	440 nM
O=C1NC2(CC2)COc2ncc(F)cc2[C@H]2COCCN2c2ccn3ncc1c3n2			Sprague-Dawley rat, female, uterus	oral, 10 mg/kg/day, 4 weeks, end of treatment		organ-to-body weight ratio	0.154 ± 0.052%
CCc1ccn2c(C(=O)NC(C)c3ccccc3)c(C)nc2c1 (stereo not drawn)	Mycolicibacterium vaccae	microbial growth	IMET10670	2 mM		inhibition zone	27 mm
CC(C)CC(C(=O)N1CC2(CC1C#N)C(=O)Nc1ccccc12)N(C)C(=O)c1cc2c(F)cc(F)c(F)c2[nH]1 (stereo not drawn)	Human coronavirus 229E	cytopathic effect	MRC5	5.475 nM		inhibition	95.7%
CCc1ccn2c(C(=O)NCc3ccccc3)c(C)nc2c1	Mycolicibacterium vaccae	microbial growth	IMET10670	2 mM		inhibition zone	19 mm
Cc1ccc(C[C@H]2CON=C(c3cc(C)nnc3Oc3cccc(Cl)c3F)N2)c(Cl)c1	Botrytis cinerea	fungal growth, inhibitor	B05.10 wild type	168 h		EC50	0.5 ± 0.3 nM
CCc1ccn2c(C(=O)N(C)Cc3ccccc3)c(C)nc2c1	Mycolicibacterium vaccae	microbial growth	IMET10670	2 mM		inhibition zone	22 mm
Cc1ccc(NS(=O)(=O)c2c(C(=O)N3CCCCCC3)c(C)n(C)c2C)c(Cl)c1	Human alphaherpesvirus 1	viral infection	HaCaT	0.1372 µM, 36 h	baseline: untreated	infection	94% and 96.8% and 102%
CN[C@@H]1[C@H](O)[C@H](NC)[C@H]2O[C@]3(O)[C@H](O[C@@H]2[C@H]1O)O[C@H](C)C[C@H]3NC(=O)Cc1cc(Cl)ccn1	Mycobacterium marinum	microbial growth	ATCC927			MIC	1.6 to 3.1 µg/mL
CCOc1cc(/C=N/NC(=S)Nc2cccc(Cl)c2)ccc1OC(=O)CN1C(=O)CSC1=O	Mycobacterium tuberculosis	Alamar blue	192			MIC	31.6 µM
Cc1cc(Oc2nc(N3CC[C@@H](c4ccncc4)C3)ncc2F)[nH]n1	Mycobacterium tuberculosis	OD	H37Rv PurF CRISPRi knockdown	0.000122 µM, together with: anhydrotetracycline low		normalised growth	90% and 95%
COc1cc(CN2CCC3(C=Cc4ccccc43)CC2)cc2c1OCO2	Mycobacterium tuberculosis	microbial growth				IC50	1310 nM
CN(C(=O)[C@H](Cc1ccccc1)NC(=O)Cc1c[nH]c2ccc(O)cc12)c1ccccc1	HIV-1	viral infection				EC50	57 ± 5 nM
CC[C@H](C)[C@H](NC(=O)[C@H](CO)NC(=O)[C@H](Cc1ccc(O)cc1)NC(=O)[C@H](Cc1ccc(O)cc1)NC(=O)[C@H](CC(N)=O)NC(=O)CNC(=O)[C@H](CO)NC(=O)[C@H](Cc1ccc(O)cc1)NC(=O)[C@H](CO)NC(=O)[C@H](CO)NC(=O)[C@H](CC(N)=O)NC(=O)COCCOCCNC(=O)CN1CCN(CC(=O)O)CCN(CC(=O)O)CCN(CC(=O)O)CC1)C(=O)N[C@@H](CC(C)C)C(N)=O [copper-64 labelled]		dynamic PET	tamoxifen-induced PDAC mouse model, metastases	8.5 min, CLDN4-expressing tumours		maximum metastasis uptake	25.1 %IA/cc

SMILES	target or system	assay	system	setting	how to read	quantity	value
Cc1ccc(CNC(=O)C(=O)c2c(C)nc3ccc(C)cn23)cc1	Mycolicibacterium vaccae	microbial growth	IMET10670	2 mM		inhibition zone	24 mm
Cc1cc(NCCc2ccccc2)nc(/N=C(\N)Nc2ccc(Cl)cc2)n1	Mycobacterium tuberculosis	microbial growth				IC50	680 nM
N=C(N)NCCC[C@@H]1NC(=O)[C@H](CCCCNC(=O)CCC(NC(=S)Nc2ccc(CC3CN(CC(=O)O)CCN(CC(=O)O)CCN(CC(=O)O)CCN3CC(=O)O)cc2)C(=O)NCCCC[C@@H]2NC(=O)[C@@H](Cc3ccc(O)cc3)NC(=O)[C@H](CC(=O)O)NC(=O)CNC(=O)[C@H](CCCNC(=N)N)NC2=O)NC(=O)[C@@H](Cc2ccc(O)cc2)NC(=O)[C@H](CC(=O)O)NC(=O)CNC1=O (stereo partly drawn) [scandium-44 labelled]		PET imaging ROI	female athymic nude mice, U-87 MG xenograft, muscle	intravenous, 0.5 h		tissue uptake	0.6 ± 0.13 %ID/g
c1cc2c(s1)CCOC21CCN(Cc2ccc3c(c2)OCCO3)CC1	Mycobacterium tuberculosis	bacterial growth				IC50	200 nM
COc1ccccc1-c1n[nH]c2nc(NC3CCN(C(=O)Cc4ccc(F)cc4F)CC3)ncc12		bead binding, competition bead pull-down, measured: LINJ.21.2130	Leishmania donovani axenic amastigote extract	10 µM	baseline: vehicle	relative abundance	1.34
CCOc1cc(/C=N/NC(=O)c2ccccn2)ccc1OC(=O)CN1C(=O)CSC1=O	Mycobacterium tuberculosis	microbial growth, resazurin	H37RV			MIC	2.26 µM
CCc1ccn2c(C(=O)NCc3ccc(C)cc3)c(C)nc2c1	Mycolicibacterium vaccae	microbial growth	IMET10670	2 mM		inhibition zone	20 mm
CS(C)(=O)=Nc1ccc(-c2ccc(-c3nc4cc(O[C@@H]5CO[C@H]6[C@@H]5OC[C@H]6O)[nH]c4cc3F)cc2)cc1	ERN1 (Homo sapiens, UniProt O75460)	enzyme activity, inhibitor		10 µM		inhibition	-5%
COc1ccc(-c2nc(-c3cccc(NC(=O)Cc4ccc(F)cc4)c3)no2)cc1OC	Mycobacterium tuberculosis	microbial growth				IC50	1040 nM
Cc1c(CC(=O)N[C@@H](Cc2ccccc2)C(=O)N(C)c2ccccc2)c2ccccc2n1C(C)C	HIV-1	viral infection				EC50	390 ± 40 nM
Cc1ccc(C2CC(C(F)(F)F)n3ncc(C(=O)NCc4ccc5c(c4)OCO5)c3N2)cc1 (stereo not drawn)	Mycobacterium tuberculosis	bacterial growth, inhibitor	mmpL3-TetON			IC50	< 97 nM
NNC(=O)c1ccncc1.O=C(CN1C(=O)CSC1=O)Oc1ccc(C=NNC(=O)c2ccncc2)cc1	Mycobacterium tuberculosis	two-drug checkerboard	H37Rv	concentration not given, unit not given	lower means more synergy	FICI	1.5
COc1ccc2nc(C)cc(OCC(=O)Nc3ccccc3OC)c2c1	Mycobacterium tuberculosis	microbial growth				IC50	3850 nM
Nc1ccccc1C(=O)OCC#CCOC(=O)c1ccccc1N	Saccharomyces cerevisiae		S288c wild type			MIC	> 64 µg/mL
O=C(NCC(F)(F)c1ccc(Cl)cc1Cl)c1cc(Cl)nnc1Oc1cccc(C2CC2)c1	Botrytis cinerea	fungal growth, inhibitor	B05.10 wild type	168 h		EC50	5.1 ± 2.2 nM
Cc1ccccc1CN1CCC(O)(c2ccc(Cl)c(C(F)(F)F)c2)CC1	Mycobacterium tuberculosis	bacterial growth				IC50	360 nM

For quick reference, copied from above:
SMILES	target or system	assay	system	setting	how to read	quantity	value
CC[C@H](C)[C@H](NC(=O)[C@H](CO)NC(=O)[C@H](Cc1ccc(O)cc1)NC(=O)[C@H](Cc1ccc(O)cc1)NC(=O)[C@H](CC(N)=O)NC(=O)CNC(=O)[C@H](CO)NC(=O)[C@H](Cc1ccc(O)cc1)NC(=O)[C@H](CO)NC(=O)[C@H](CO)NC(=O)[C@H](CC(N)=O)NC(=O)COCCOCCNC(=O)CN1CCN(CC(=O)O)CCN(CC(=O)O)CCN(CC(=O)O)CC1)C(=O)N[C@@H](CC(C)C)C(N)=O [copper-64 labelled]		dynamic PET	tamoxifen-induced PDAC mouse model, metastases	8.5 min, CLDN4-expressing tumours		maximum metastasis uptake	25.1 %IA/cc
Cc1ccc(NS(=O)(=O)c2c(C(=O)N3CCCCCC3)c(C)n(C)c2C)c(Cl)c1	Human alphaherpesvirus 1	viral infection	HaCaT	0.1372 µM, 36 h	baseline: untreated	infection	94% and 96.8% and 102%
CCc1ccn2c(C(=O)NC(C)c3ccccc3)c(C)nc2c1 (stereo not drawn)	Mycolicibacterium vaccae	microbial growth	IMET10670	2 mM		inhibition zone	27 mm
